# Measured values gathered from unrelated publications.
# A part holds a random share of what one study measured.
# UniProt Q9BWU1, sequence (whole entry, looked up): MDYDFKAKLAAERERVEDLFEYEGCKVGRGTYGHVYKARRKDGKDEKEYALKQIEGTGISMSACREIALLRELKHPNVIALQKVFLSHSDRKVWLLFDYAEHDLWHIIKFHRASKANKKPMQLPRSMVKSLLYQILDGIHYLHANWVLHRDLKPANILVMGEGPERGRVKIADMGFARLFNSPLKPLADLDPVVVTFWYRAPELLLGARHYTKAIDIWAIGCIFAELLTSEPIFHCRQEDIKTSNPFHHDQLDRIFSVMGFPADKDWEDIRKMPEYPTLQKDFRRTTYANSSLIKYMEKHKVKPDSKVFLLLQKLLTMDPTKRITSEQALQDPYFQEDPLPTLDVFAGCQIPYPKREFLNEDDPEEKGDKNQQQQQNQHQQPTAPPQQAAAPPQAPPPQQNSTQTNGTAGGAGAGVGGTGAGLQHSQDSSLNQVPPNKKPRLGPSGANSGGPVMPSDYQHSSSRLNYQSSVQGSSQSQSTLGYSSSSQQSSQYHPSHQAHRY
# UniProt Q6P3R8, sequence (whole entry, looked up): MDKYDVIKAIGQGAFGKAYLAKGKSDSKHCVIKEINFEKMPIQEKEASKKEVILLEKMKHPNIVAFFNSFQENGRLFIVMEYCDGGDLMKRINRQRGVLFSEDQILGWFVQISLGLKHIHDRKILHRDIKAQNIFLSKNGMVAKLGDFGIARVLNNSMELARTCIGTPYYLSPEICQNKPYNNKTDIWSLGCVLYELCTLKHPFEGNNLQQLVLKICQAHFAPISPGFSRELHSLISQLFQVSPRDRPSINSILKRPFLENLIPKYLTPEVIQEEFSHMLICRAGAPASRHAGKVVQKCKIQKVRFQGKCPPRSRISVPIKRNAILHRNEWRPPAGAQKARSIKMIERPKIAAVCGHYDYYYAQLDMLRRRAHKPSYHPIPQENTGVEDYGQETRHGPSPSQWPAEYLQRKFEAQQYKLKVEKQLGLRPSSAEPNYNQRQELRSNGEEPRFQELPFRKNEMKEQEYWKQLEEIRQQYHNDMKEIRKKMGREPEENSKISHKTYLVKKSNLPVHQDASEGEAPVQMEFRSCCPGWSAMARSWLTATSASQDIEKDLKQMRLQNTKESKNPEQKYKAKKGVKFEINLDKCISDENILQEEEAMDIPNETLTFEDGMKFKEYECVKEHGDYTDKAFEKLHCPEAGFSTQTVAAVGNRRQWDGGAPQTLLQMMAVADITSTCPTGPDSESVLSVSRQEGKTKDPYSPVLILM
# UniProt Q2M2I8, sequence (whole entry, looked up): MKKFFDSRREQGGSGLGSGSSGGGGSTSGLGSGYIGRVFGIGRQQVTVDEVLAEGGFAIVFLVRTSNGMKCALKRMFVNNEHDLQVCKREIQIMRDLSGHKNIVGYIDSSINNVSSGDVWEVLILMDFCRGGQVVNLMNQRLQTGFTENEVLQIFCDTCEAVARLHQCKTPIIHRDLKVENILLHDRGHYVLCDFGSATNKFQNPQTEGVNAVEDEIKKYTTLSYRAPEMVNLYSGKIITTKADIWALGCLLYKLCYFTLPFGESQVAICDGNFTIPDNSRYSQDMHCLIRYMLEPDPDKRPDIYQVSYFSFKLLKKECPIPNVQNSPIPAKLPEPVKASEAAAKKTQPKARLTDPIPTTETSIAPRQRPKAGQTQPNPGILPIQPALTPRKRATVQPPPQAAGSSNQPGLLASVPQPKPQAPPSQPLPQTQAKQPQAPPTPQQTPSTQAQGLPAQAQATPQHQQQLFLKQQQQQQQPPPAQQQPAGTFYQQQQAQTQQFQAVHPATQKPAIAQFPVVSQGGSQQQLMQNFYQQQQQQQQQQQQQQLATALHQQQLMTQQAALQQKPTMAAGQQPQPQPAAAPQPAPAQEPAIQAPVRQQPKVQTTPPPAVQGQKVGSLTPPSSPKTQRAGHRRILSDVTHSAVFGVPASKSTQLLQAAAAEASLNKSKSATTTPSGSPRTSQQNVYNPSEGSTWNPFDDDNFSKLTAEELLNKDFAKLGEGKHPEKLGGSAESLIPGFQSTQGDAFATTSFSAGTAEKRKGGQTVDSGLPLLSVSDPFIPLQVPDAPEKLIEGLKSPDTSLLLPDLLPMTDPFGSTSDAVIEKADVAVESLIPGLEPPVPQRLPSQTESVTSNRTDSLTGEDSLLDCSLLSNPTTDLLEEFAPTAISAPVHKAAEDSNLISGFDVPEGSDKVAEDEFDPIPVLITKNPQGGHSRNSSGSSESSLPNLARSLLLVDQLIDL
# UniProt P33981, sequence (whole entry, looked up): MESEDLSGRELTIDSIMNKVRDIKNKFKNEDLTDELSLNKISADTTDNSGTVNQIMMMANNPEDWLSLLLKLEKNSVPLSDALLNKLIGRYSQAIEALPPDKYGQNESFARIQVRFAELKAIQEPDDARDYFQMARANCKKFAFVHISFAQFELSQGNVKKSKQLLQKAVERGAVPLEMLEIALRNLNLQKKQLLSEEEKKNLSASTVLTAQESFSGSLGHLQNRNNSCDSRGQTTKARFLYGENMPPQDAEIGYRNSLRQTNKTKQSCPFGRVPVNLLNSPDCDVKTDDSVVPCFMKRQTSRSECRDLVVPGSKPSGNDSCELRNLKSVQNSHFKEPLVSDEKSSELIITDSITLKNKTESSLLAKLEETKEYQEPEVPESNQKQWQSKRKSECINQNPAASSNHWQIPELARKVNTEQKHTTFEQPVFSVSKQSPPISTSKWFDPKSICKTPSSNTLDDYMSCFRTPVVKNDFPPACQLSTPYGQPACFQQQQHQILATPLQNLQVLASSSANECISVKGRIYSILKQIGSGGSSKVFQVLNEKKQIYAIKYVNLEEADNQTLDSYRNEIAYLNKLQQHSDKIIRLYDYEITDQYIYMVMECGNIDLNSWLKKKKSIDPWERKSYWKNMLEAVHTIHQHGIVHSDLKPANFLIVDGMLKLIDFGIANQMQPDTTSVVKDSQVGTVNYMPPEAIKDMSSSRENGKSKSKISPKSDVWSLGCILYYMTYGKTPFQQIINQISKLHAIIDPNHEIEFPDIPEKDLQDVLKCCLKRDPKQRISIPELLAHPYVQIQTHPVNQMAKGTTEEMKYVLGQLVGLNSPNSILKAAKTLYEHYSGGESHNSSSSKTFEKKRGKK
# UniProt Q14680, sequence (whole entry, looked up): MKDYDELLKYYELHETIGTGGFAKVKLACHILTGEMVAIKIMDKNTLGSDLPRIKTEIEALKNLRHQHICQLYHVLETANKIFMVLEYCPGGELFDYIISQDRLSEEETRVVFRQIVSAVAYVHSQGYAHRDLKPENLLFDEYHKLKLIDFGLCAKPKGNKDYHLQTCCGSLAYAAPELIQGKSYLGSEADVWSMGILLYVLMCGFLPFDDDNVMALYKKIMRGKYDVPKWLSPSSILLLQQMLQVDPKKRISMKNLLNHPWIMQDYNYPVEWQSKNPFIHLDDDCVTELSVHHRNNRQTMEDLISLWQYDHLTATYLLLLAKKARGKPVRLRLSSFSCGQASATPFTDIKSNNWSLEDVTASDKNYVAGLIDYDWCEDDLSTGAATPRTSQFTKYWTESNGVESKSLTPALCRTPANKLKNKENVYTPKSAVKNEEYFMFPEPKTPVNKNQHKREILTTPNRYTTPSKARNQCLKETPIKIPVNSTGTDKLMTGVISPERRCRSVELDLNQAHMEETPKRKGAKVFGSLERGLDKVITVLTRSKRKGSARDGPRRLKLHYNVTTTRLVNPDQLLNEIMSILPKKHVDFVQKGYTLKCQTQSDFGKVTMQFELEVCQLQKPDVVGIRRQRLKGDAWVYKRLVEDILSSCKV

# Study 1
# SMILES: CO[C@H]1CC[C@H](CNc2ccc(S(=O)(=O)NC(=O)c3ccc(N4CCN(CC5=C(c6ccc(Cl)cc6)CC(C)(C)CC5)CC4)cc3Oc3cnc4[nH]ccc4c3)cc2[N+](=O)[O-])CC1
# Concentration: 1 µM
target,assay,remaining binding
"CDK19 (Homo sapiens, UniProt Q9BWU1)",competition binding,73%
"EGFR (Homo sapiens, UniProt P00533, del746-750)","cell-free assay, competition with immobilised ligand",100%
"NEK5 (Homo sapiens, UniProt Q6P3R8)","cell-free assay, competition with immobilised ligand",88%
"TTK (Homo sapiens, UniProt P33981)","cell-free assay, competition with immobilised ligand",82%
"MAP3K15 (Homo sapiens, UniProt Q6ZN16)","cell-free assay, competition with immobilised ligand",100%
"TAOK3 (Homo sapiens, UniProt Q9H2K8)","cell-free assay, competition with immobilised ligand",87%
"AAK1 (Homo sapiens, UniProt Q2M2I8)",binding,78%
"STK10 (Homo sapiens, UniProt O94804)","cell-free assay, competition with immobilised ligand",74%
"MELK (Homo sapiens, UniProt Q14680)","cell-free assay, competition with immobilised ligand",67%

# Study 2
# Target: Macrophage-stimulating protein receptor (MST1R, Homo sapiens, UniProt Q04912)
# UniProt Q04912, sequence (whole entry, looked up): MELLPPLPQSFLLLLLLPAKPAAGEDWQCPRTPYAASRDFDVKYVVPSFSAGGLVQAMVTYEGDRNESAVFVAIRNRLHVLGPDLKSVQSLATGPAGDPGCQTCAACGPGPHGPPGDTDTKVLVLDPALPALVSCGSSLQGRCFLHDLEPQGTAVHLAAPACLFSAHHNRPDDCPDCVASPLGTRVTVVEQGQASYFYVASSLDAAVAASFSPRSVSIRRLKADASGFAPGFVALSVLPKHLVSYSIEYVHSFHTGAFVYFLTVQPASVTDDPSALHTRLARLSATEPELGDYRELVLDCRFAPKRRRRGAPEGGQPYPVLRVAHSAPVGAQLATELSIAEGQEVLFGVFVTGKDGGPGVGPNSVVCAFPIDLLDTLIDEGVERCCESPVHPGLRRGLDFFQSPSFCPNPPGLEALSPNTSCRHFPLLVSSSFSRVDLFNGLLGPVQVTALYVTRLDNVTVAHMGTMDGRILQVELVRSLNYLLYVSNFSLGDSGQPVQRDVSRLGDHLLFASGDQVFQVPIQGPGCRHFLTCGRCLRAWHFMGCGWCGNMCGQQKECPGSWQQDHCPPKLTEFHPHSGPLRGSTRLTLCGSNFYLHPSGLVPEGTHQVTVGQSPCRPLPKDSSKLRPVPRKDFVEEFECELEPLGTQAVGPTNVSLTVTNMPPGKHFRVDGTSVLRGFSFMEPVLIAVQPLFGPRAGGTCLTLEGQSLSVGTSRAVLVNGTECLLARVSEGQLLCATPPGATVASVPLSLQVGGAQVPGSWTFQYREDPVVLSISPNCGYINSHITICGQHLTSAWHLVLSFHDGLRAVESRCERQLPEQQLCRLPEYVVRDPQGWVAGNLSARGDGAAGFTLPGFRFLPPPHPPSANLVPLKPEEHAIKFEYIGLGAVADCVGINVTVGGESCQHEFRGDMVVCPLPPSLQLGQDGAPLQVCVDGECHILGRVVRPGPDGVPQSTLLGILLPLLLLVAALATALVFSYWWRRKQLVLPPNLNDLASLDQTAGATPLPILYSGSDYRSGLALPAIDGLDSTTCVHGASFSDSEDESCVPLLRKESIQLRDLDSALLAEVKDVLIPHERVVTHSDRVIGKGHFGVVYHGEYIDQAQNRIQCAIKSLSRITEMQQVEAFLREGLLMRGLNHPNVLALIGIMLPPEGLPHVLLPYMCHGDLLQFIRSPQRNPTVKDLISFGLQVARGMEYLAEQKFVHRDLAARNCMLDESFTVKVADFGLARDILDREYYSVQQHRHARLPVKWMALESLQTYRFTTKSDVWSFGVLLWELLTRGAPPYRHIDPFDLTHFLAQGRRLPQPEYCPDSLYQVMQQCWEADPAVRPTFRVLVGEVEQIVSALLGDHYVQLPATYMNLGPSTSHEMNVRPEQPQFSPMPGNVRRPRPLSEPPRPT
# Effect on: enzyme activity
# Action: inhibitor
# Concentration: 0.5 µM
# Reference: control
Compound,remaining activity [%]
N#CC(C#N)=C(N)/C(C#N)=C/c1ccc(O)cc1,102
COc1cc2ncnc(Nc3ccc(F)c(Cl)c3)c2cc1OCCCN1CCOCC1,97.7
O=C1NC(=O)C(c2cn(CCCO)c3ncccc23)=C1c1cnccn1,96.1
COc1ccc(OC)c2c(=S)c3ccccc3[nH]c12,87.9
CC(C)[C@H](CO)Nc1nc(Nc2cc(N)cc(Cl)c2)c2ncn(C(C)C)c2n1,122
CCOC(=O)c1c(C)[nH]c(/C=C2\C(=O)Nc3ccccc32)c1C,87.5
Nc1ncnc2n[nH]c(Nc3ccc(F)cc3)c12,93.7
Cn1c2ccccc2c2c3c(c4c5ccccc5n(CCC#N)c4c21)CNC3=O,111
CNC(=O)c1cc(Oc2ccc(NC(=O)Nc3ccc(Cl)c(C(F)(F)F)c3)cc2)ccn1,97.6
O=C1NC(=O)C(c2cn(CCCn3ccnc3)c3ccccc23)=C1Nc1ccccc1,93.5
Nc1[nH]nc2nc3ccccc3nc12,105
Cc1cccc(-c2[nH]c(C(C)(C)C)nc2-c2ccc3c(c2)OCO3)n1,101
C#Cc1cccc(Nc2ncnc3cc(OCCOC)c(OCCOC)cc23)c1,93.6
COc1ccc(CNC(=O)Nc2ncc([N+](=O)[O-])s2)cc1,98.4

# Study 3
# Species: mouse
# Sample: microsomes or S9
# Concentration: 2 µM
# Time: 0.5 h
Structure (SMILES),remaining compound [%]
Cc1cccc(C)c1NC(=O)C1(NC(=O)c2cc[nH]n2)CCCCC1,59.9
CCOC(=O)c1c(N)sc2c1CCC(CC)C2 (stereo not shown),63.2
CCCc1nc(C)c2c(Cl)nc3ccc(OC)nc3n12,0.83
O=C(Cc1c(F)cccc1Cl)N1CCc2n[nH]c(=O)n2CC1,29.2
CC1Nc2ncnc(NC(C)c3cc4ccccc4nc3-c3ccccc3)c2NC1=O (stereo not shown),0.307

# Study 4
# Cell line: A-375
# Concentration: 100 µM
# Time: 18 h
Compound,viability
OCCOCCN1CCN(C(c2ccccc2)c2ccc(Cl)cc2)CC1 (stereo not shown),67.2%
O=C(O)c1ccc[n+]([O-])c1,109%
CCCCc1oc2ccc(NS(C)(=O)=O)cc2c1C(=O)c1ccc(OCCCN(CCCC)CCCC)cc1,9.83%
